Assay results of several laboratories.
Protocols differ between the studies behind these lines. ± marks the error that the study gave. In brackets after ≈: the same amount, converted by molar mass. Where no end group is shown, it is not given here.

Substance	organism	test	system	setting	scale	quantity	value
VDHVFLRF-NH2 (C-amide)	Drosophila melanogaster	heart rate	wandering third instar larval heart	40 nL injected, 1 µM, 10 min	relative to: DMS	inhibition	223%
CP(=O)(O)CCC(N)C(=O)O (centres unmarked)	Setaria faberi	–	–	125 g/ha, 13 days, SETFA, post-emergence spray	relative to: untreated (0%), complete kill (100%)	herbicidal activity	100%
SSASAW	rhesus rotavirus	–	peptide, newborn BALB/c mice, RRV biliary atresia	intraperitoneal, 500 µg at birth and days 1 and 2, 21 days	–	mortality	92.9%
CC[C@H](C)[C@H](NC(=O)[C@H](CCCCN)NC(=O)[C@H](CCC(=O)O)NC(=O)[C@H](CCCCN)NC(=O)[C@H](CO)NC(=O)[C@H](CCCCN)NC(=O)[C@H](CCCNC(=N)N)NC(=O)[C@H](Cc1ccccc1)NC(=O)[C@H](Cc1ccccc1)NC(=O)[C@H](CC(=O)O)NC(=O)CNC(=O)[C@H](CC(C)C)NC(=O)[C@@H](N)CC(C)C)C(=O)NCC(=O)N[C@@H](CCCCN)C(=O)N[C@@H](CCC(=O)O)C(=O)N[C@@H](Cc1ccccc1)C(=O)N[C@@H](CCCCN)C(=O)N[C@@H](CCCNC(=N)N)C(=O)N[C@H](C(=O)N[C@H](C(=O)N[C@@H](CCC(N)=O)C(=O)N[C@@H](CCCNC(=N)N)C(=O)N[C@H](C(=O)N[C@@H](CCCCN)C(=O)N[C@@H](CC(=O)O)C(=O)N[C@@H](Cc1ccccc1)C(=O)N[C@@H](CC(C)C)C(=O)N[C@@H](CCCNC(=N)N)C(=O)N[C@@H](CC(N)=O)C(=O)N[C@@H](CC(C)C)C(=O)N[C@H](C(=O)N1CCC[C@H]1C(=O)N[C@@H](CCCNC(=N)N)C(=O)N[C@H](C(=O)N[C@@H](CCC(=O)O)C(=O)N[C@@H](CO)C(=O)O)[C@@H](C)O)C(C)C)[C@@H](C)CC)C(C)C)[C@@H](C)CC	Staphylococcus aureus	–	JE2 SAUSA300_0988 trkA transposon mutant	12.5% TSB	relative to: wild type over mutant	MIC ratio	2 fold
CCCCCn1c(=O)[nH]c2cc(C(=O)NCCCN3CCCCC3CC)ccc2c1=O (centres unmarked)	Hepatitis C virus	HCV infection, Gaussia luciferase reporter	Huh7.5.1 reporter cells	–	relative to: 10 µM cyclosporin A, DMSO, negative means inhibition	maximal response	-55.6%
CCCCCCOc1c(OC)cc(NC(C)CCCNC(=O)C(N)CCCCN)c2nc(C(C)(C)C)ccc12 (centres unmarked)	Staphylococcus aureus	–	MRSA ATCC 33591	–	–	MBC	> 20 µg/mL
CC=Cc1ccc(OC(=O)c2ccc([N+](=O)[O-])cc2)c(OC)c1	Spodoptera frugiperda	insecticidal activity	larvae	topical	–	LD50	2020 mg/kg
CN[C@H](CC(C)C)C(=O)N[C@H]1C(=O)N[C@@H](CC(N)=O)C(=O)N[C@H]2C(=O)N[C@H]3C(=O)N[C@H](C(=O)N[C@H](C(=O)O)c4cc(O)cc(O)c4-c4cc3ccc4O)[C@H](O)c3ccc(c(Cl)c3)Oc3cc2cc(c3O[C@@H]2O[C@H](CO)[C@@H](O)[C@H](O)[C@H]2O[C@H]2C[C@](C)(N)[C@H](O)[C@H](C)O2)Oc2ccc(cc2Cl)[C@H]1O	vancomycin-resistant Enterococcus	–	Galleria mellonella larvae	20 mg/kg, day 7	–	larval survival	40%
OC(Cn1cncn1)(Cn1cncn1)c1ccc(F)cc1F	Candida tropicalis	fungal growth, broth microdilution	ATCC 750, fluconazole and amphotericin B resistant	24 and 48 h	–	MIC99	> 200 µM
STFFRLFNRSFTQGRRRRSVQWCA	Streptococcus sanguis	OD600	peptide, ATCC 49295, 4 h single-species biofilm	128 µg/ml, 5 min exposure, OD600 read over 5 h	–	biofilm growth	no effect
CCCCCCCOc1c(OC)cc(NC(C)CCCNC(=O)C(N)C(C)CC)c2nc(C(C)(C)C)ccc12 (centres unmarked)	Staphylococcus aureus	microbial growth	ATCC33591 MRSA	drug-resistant strain	–	IC50	2.34 µg/mL (≈ 4.31 µM)
CC(=NNC(=O)CN1c2c(-c3ccccc3)n[nH]c2-c2ccccc2S1(=O)=O)c1cc2ccccc2o1	HIV-1	viral replication	PBMC	–	–	EC90	> 100 µM
CCCCCCOc1c(OC)cc(NC(C)CCCNC(=O)C(N)CCCNC(=N)N)c2nc(C(C)(C)C)ccc12 (centres unmarked)	Staphylococcus aureus	microbial killing	ATCC33591 MRSA	drug-resistant strain	–	MBC	> 20 µg/mL
CC(=O)OC[C@]12Oc3ccc(-c4ccc5c(c4O)C(=O)C4=C(O)C[C@@H](C)[C@@H](OC(C)=O)[C@@]4(COC(C)=O)O5)c(O)c3C(=O)C1=C(O)C[C@@H](C)[C@H]2OC(C)=O	Phyllosticta citricarpa	–	Citrus sinensis leaf discs	10000 µg/mL, 504 h, methanol solution	–	pycnidia count	187 ± 9

Repeated from above:
Substance	organism	test	system	setting	scale	quantity	value
CCCCCCOc1c(OC)cc(NC(C)CCCNC(=O)C(N)CCCCN)c2nc(C(C)(C)C)ccc12 (centres unmarked)	Staphylococcus aureus	–	MRSA ATCC 33591	–	–	MBC	> 20 µg/mL
